Measurements collected from several papers.
Lines come from different studies, so protocols differ. ± gives the spread as reported.

CCCC[C@H](NC(=O)[C@@H](NC(=O)[C@H](CC(=O)O)NC(=O)[C@H](CCC(N)=O)NC(=O)[C@H](CC(C)C)NC(=O)[C@H](CC(C)C)NC(=O)[C@H](CCCN)NC(=O)[C@H](CCCNC(=N)N)NC(=O)[C@H](C)NC(=O)[C@H](CO)NC(=O)[C@H](CC(C)C)NC(=O)[C@H](CCC(N)=O)NC(=O)[C@H](CC)NC(=O)[C@H](CC(C)C)NC(=O)[C@@H](NC(=O)[C@H](CCCN)NC(=O)[C@H](CCCNC(=N)N)NC(=O)[C@H](Cc1ccc(O)cc1)NC(=O)[C@H](CO)NC(=O)[C@H](CCC(N)=O)NC(=O)[C@@H](NC(=O)[C@H](Cc1ccccc1)NC(=O)[C@@H](NC(=O)[C@H](C)NC(=O)[C@H](CC(=O)O)NC(=O)[C@H](C)NC(=O)CCc1ccc(O)cc1)[C@@H](C)CC)[C@@H](C)O)C(C)C)[C@@H](C)CC)C(=O)N[C@@H](CC(=O)O)C(=O)N[C@@H](CCCNC(=N)N)C(=O)NC  serum GH level (GH release, ELISA; male Sprague-Dawley rat, anaesthetised, serum; subcutaneous, 3 µg/kg, 15 min): 248 ± 40.5 ng/mL
COc1c2c(cc3oc(C)cc(=O)c13)O[C@H](C(C)(C)O[C@@H]1O[C@H](CO)[C@@H](O)[C@H](O)[C@H]1O)C2  ear edema weight increase (mouse, xylene ear edema; oral, 2 mg/kg): 6.42 ± 0.23 mg
Cc1ccc(-c2oc3ccccc3c(=O)c2OCc2ccccc2)cc1  serum alanine aminotransferase (diabetic rat; 5 mg/kg, p-nitrophenyl β-glucoside induced): 38.2 ± 2.61 IU
CCCC[C@H](NC(=O)[C@@H](NC(=O)[C@H](CC(=O)O)NC(=O)[C@H](CCC(N)=O)NC(=O)[C@H](CC(C)C)NC(=O)[C@H](CC(C)C)NC(=O)[C@H](CCCN)NC(=O)[C@H](CCCNC(=N)N)NC(=O)[C@H](C)NC(=O)[C@H](CO)NC(=O)[C@H](CC(C)C)NC(=O)[C@H](CCC(N)=O)NC(=O)[C@H](CC)NC(=O)[C@H](CC(C)C)NC(=O)[C@@H](NC(=O)[C@H](CCCN)NC(=O)[C@H](CCCNC(=N)N)NC(=O)[C@H](Cc1ccc(O)cc1)NC(=O)[C@H](CO)NC(=O)[C@H](CCC(N)=O)NC(=O)[C@@H](NC(=O)[C@H](Cc1ccccc1)NC(=O)[C@@H](NC(=O)[C@H](C)NC(=O)[C@H](CC(=O)O)NC(=O)[C@H](C)NC(=O)[C@H](Cc1ccc(O)cc1)NC)[C@@H](C)CC)[C@@H](C)O)C(C)C)[C@@H](C)CC)C(=O)N[C@@H](CC(=O)O)C(=O)NCCCCNC(=N)N  serum GH level (GH release, ELISA; male rat, anaesthetised, serum; intravenous, 1 µg/kg, 0 min): 37.8 ± 5.7 ng/mL
CCc1nc(-c2ccc(-c3ccc(CCC(N)(CO)CO)cc3)cc2)co1  maximal inhibition of PBLs (Sprague-Dawley rat, peripheral blood lymphocytes; oral, 1 mg/kg, single dose): 50%
CCCCCCCCCCCCCCCC(=O)N[C@@H](CCC(=O)NCCCC[C@H](NC(=O)[C@H](CC(=O)O)NC(=O)[C@H](CO)NC(=O)[C@@H](NC(=O)[C@H](Cc1ccccc1)NC(=O)[C@@H](NC(=O)CNC(=O)[C@H](CCC(N)=O)NC(=O)[C@H](CO)NC(=O)[C@@H](N)Cc1c[nH]cn1)[C@@H](C)O)[C@@H](C)O)C(=O)N[C@@H](CO)C(=O)N[C@@H](CCC(=O)O)C(=O)N[C@@H](Cc1ccc(O)cc1)C(=O)N[C@@H](CC(C)C)C(=O)N[C@@H](CC(=O)O)C(=O)N[C@@H](CO)C(=O)N[C@@H](CCC(=O)O)C(=O)N[C@@H](CCCNC(=N)N)C(=O)N[C@@H](C)C(=O)N[C@@H](CCCNC(=N)N)C(=O)N[C@@H](CC(=O)O)C(=O)N[C@@H](Cc1ccccc1)C(=O)N[C@H](C(=O)N[C@@H](C)C(=O)N[C@@H](Cc1c[nH]c2ccccc12)C(=O)N[C@@H](CC(C)C)C(=O)N[C@@H](CCC(=O)O)C(=O)N[C@@H](C)C(=O)NCC(=O)NCC(=O)O)C(C)C)C(=O)O  body weight loss (female cynomolgus monkey; subcutaneous, 8 nmol/kg/day for 8 weeks, day 57; baseline: starting body weight): 5%
CCOC(=O)c1cc2c(N)c(C(=O)OC)sc2nc1C  duration of diuretic activity (Sprague-Dawley rats; subcutaneous, 100 mg/kg): ~6 h
COc1cc([C@@H]2c3cc4c(cc3[C@@H](OCc3cc(-c5ccc(C#N)cc5)no3)[C@H]3COC(=O)C23)OCO4)cc(OC)c1OC (some centres unmarked)  IC50 (tubulin polymerisation, inhibitor): 4.85 µM
CCOP(=O)(CC(=O)Nc1ccc(S(=O)(=O)N(CC(N)=O)c2ccc(N(CC(N)=O)S(=O)(=O)c3ccc(OC)cc3)c3ccccc23)cc1)OCC  protein level (western blot, measured: phospho-tau; APP/PS1 mice, hippocampus and frontal cortex; 40 mg/kg): decreased
COc1ccc2c(c1)c(CC(=O)OCC(=O)OC(C)(C)C)c(C)n2C(=O)c1ccc(Cl)cc1  writhing count (BALB/c mice, acetic acid writhing; intraperitoneal, 10 mg/kg, 20 min count): 16.5 ± 1.65
CC(C)(O)c1ccc(N2Cc3c(ccnc3-c3ccc(F)cc3OCC(F)(F)F)C2=O)cc1  glucosylsphingosine level (Gaucher disease mouse model, plasma; 30 mg/kg, 2 months once daily; baseline: vehicle): 36 ± 3%
CCN(C(=O)c1cc(F)ccc1Oc1nncnc1N1CCC2(C1)CN([C@H](CCCN(C)CCOC)C(C)C)C2)C(C)C  tumour regression (mouse, subcutaneous MOLM-14 AML xenograft; oral, 30 mg/kg daily, 5 weeks): 70%
Cn1ncc2cc(-c3cncc(Cl)c3N3CCC4(CCNC4=O)CC3)ccc21  number of genes altered (gene-expression microarray; Tet-O-β-catenin intestinal organoids, mouse; 2 µM, 24 h): 219
N#Cc1ccc(-c2cc(=O)c3ccc4[nH]c(C(F)(F)F)nc4c3o2)cc1  latency AUC (Morris water maze; 5xFAD mice; dose not given, 5 acquisition days; baseline: vehicle): decreased
CCCC[C@H](NC(=O)[C@@H](NC(=O)[C@H](CC(=O)O)NC(=O)[C@H](CCC(N)=O)NC(=O)[C@H](CC(C)C)NC(=O)[C@H](CC(C)C)NC(=O)[C@H](CCCN)NC(=O)[C@H](CCCNC(=N)N)NC(=O)[C@H](C)NC(=O)[C@H](CO)NC(=O)[C@H](CC(C)C)NC(=O)[C@H](CCC(N)=O)NC(=O)[C@H](CC)NC(=O)[C@H](CC(C)C)NC(=O)[C@@H](NC(=O)[C@H](CCCN)NC(=O)[C@H](CCCNC(=N)N)NC(=O)[C@H](Cc1ccc(O)cc1)NC(=O)[C@H](CO)NC(=O)[C@H](CCC(N)=O)NC(=O)[C@@H](NC(=O)[C@H](Cc1ccccc1)NC(=O)[C@@H](NC(=O)[C@H](C)NC(=O)[C@H](CC(=O)O)NC(=O)[C@H](C)NC(=O)CCc1ccc(O)cc1)[C@@H](C)CC)[C@@H](C)O)C(C)C)[C@@H](C)CC)C(=O)N[C@@H](CC(=O)O)C(=O)NCCCCNC(=N)N  serum GH level (GH release, ELISA; male Sprague-Dawley rat, anaesthetised, serum; subcutaneous, 3 µg/kg, 15 min): 230 ± 15.1 ng/mL
Cc1ncc([N+](=O)[O-])n1CCOCc1nnc(SCC(=O)c2ccc(Br)cc2)o1  DPPH scavenging (50 µg/mL, 45 min): 39.14 ± 0.22%
C=CC(=O)N1C[C@H](C)N(c2nc(OC[C@@]34CCCN3C[C@H](F)C4)nc3c(F)c(-c4ccc(F)c5sc(N)c(C#N)c45)c(C(F)(F)F)cc23)C[C@H]1C  tumour volume reduction (NCI-H358 xenograft, mouse; oral, 1 mg/kg once daily, 28 days): 71%
NC(=O)c1cccnc1.O.O=c1[nH]cc(F)c(=O)[nH]1.O=c1[nH]cc(F)c(=O)[nH]1.O=c1[nH]cc(F)c(=O)[nH]1  tumour growth inhibition (nude mouse HCT-116 xenograft; 0.006 mmol/kg/day, 21 days): 25.6%
CC[C@H]1[C@@H](O)[C@@H]2[C@H](CC[C@]3(C)[C@@H]([C@H](C)CCOS(=O)(=O)[O-])CC[C@@H]23)[C@@]2(C)CC[C@@H](O)C[C@@H]12.[Na+]  fibrosis stage improvement (ob/ob NASH mouse; 3.0 mg/kg, 16 weeks, improvement > 1 points; baseline: animals): 0%
CC(=O)N[C@H](CSSC[C@H](N)C(=O)O)C(=O)N[C@H](C)C(=O)N[C@H](CCCNC(=N)N)C(=O)N[C@H](CCCNC(=N)N)C(=O)N[C@H](CCCNC(=N)N)C(=O)N[C@H](C)C(=O)N[C@H](CCCNC(=N)N)C(N)=O  serum FGF23 decrease (healthy male human; intravenous, 10 mg single, 24 h): > 30%
C[C@H](NC(=O)CNC(=O)[C@H](CCC(=O)O)NC(=O)[C@H](CCC(=O)O)NC(=O)[C@H](CC(=O)O)NC(=O)[C@@H]1CCCN1C(=O)[C@H](Cc1ccccc1)NC(=O)[C@H](CS)NC(=O)[C@H](Cc1ccc(O)cc1)NC(=O)CCCNC(=O)CNC(=O)CNC(=O)[C@@H](C)NC(=O)CN)C(=O)N[C@@H](CS)C(=O)N[C@@H](Cc1ccc(O)cc1)C(N)=O [technetium-99m labelled]  tumour to non-tumour ratio (SPECT; BALB/c nude mouse, SKBR3 tumour; intravenous, 37 MBq, 30 min): 2.19
COc1cc(Cn2ccc3cc(C(=O)NCC45CC6CC(CC(C6)C4)C5)ccc32)ccc1C(=O)NO  amyloid-positive area (immunohistochemistry, measured: amyloid-beta; 5xFAD mouse, brain; intraperitoneal, 10 mg/kg once daily, 2 months; baseline: vehicle): decreased
CN(C)c1ccc(-c2oc3ccccc3c(=O)c2OCc2ccccc2)cc1  serum alanine aminotransferase (diabetic rat; 7.5 mg/kg, p-nitrophenyl β-glucoside induced): 31.1 ± 2.35 IU
Cc1cc2c(cc1C1(c3ncc(C(=O)O)cn3)CC1)C(C)(C)CCC2(C)C  log2 fold change (RNA sequencing, measured: Nmu; rat, brain; dose not given, 24 h; baseline: vehicle): -0.41
CCCOC(=O)Cc1c(C)n(C(=O)c2ccc(Cl)cc2)c2ccc(OC)cc12  analgesia (acetic acid writhing test; BALB/c mouse; intraperitoneal, 20 mg/kg; baseline: negative control): 64.4%
O=C1CCN(Cc2ccccc2)CC1C(C[N+](=O)[O-])c1ccccc1 (centres unmarked)  number of writhes (mouse acetic acid writhing; 25 mg/kg, together with: yohimbine 1 mg/kg pretreatment): 54.7 ± 1.2

For quick reference, copied from above:
CCOP(=O)(CC(=O)Nc1ccc(S(=O)(=O)N(CC(N)=O)c2ccc(N(CC(N)=O)S(=O)(=O)c3ccc(OC)cc3)c3ccccc23)cc1)OCC  protein level (western blot, measured: phospho-tau; APP/PS1 mice, hippocampus and frontal cortex; 40 mg/kg): decreased
CC(C)(O)c1ccc(N2Cc3c(ccnc3-c3ccc(F)cc3OCC(F)(F)F)C2=O)cc1  glucosylsphingosine level (Gaucher disease mouse model, plasma; 30 mg/kg, 2 months once daily; baseline: vehicle): 36 ± 3%
